{"data": "Earlier results as cited in several papers", "note": "Protocols differ between the studies behind these lines."}
{"SMILES": "CO[C@H]1C[C@@H]2CC[C@@H](C)[C@@](O)(O2)C(=O)C(=O)N2CCCC[C@H]2C(=O)O[C@H]([C@H](C)C[C@@H]2CC[C@@H](O)[C@H](OC)C2)CC(=O)[C@H](C)/C=C(\\C)[C@@H](O)[C@@H](OC)C(=O)[C@H](C)C[C@H](C)/C=C/C=C/C=C/1C", "test": "ADAM absorption model", "endpoint": "fraction unbound in gut", "result": 1}
{"SMILES": "CC(O)C(C)n1ncn(-c2ccc(N3CCN(c4ccc(OCC5COC(Cn6cncn6)(c6ccc(Cl)cc6Cl)O5)cc4)CC3)cc2)c1=O (stereo not drawn)", "system": "plasma", "endpoint": "fraction unbound in plasma", "result": 0.016}
{"SMILES": "CCOC(=O)/C=C\\C(=O)OCC", "system": "plasma", "setting": "literature value", "endpoint": "fraction unbound", "result": 0.393}
{"SMILES": "CC(O)C(C)n1ncn(-c2ccc(N3CCN(c4ccc(OCC5COC(Cn6cncn6)(c6ccc(Cl)cc6Cl)O5)cc4)CC3)cc2)c1=O (stereo not drawn)", "system": "plasma", "setting": "Simcyp input parameter", "endpoint": "fraction unbound in plasma", "result": 0.016}
{"SMILES": "C[C@H](Cn1cnc2c(N)ncnc21)OCP(=O)(O)O", "setting": "Simcyp first-order absorption", "endpoint": "fraction absorbed", "result": 0.2}
{"SMILES": "CC(C)(CO)c1cc2cc(NC(=O)C3(c4ccc5c(c4)OC(F)(F)O5)CC3)c(F)cc2n1C[C@@H](O)CO", "system": "microsomal incubation", "setting": "CYP2C9 Ki", "endpoint": "fraction unbound", "result": 0.876}
{"SMILES": "CC[C@@H](C(=O)Nc1ccc(C(N)=O)c(F)c1)n1cc(OC)c(-c2cc(Cl)ccc2-n2cc(C(F)(F)F)nn2)cc1=O", "system": "feces", "setting": "concentration not given", "endpoint": "fraction excreted unchanged", "result": "28%"}
{"SMILES": "CC(C)(O/N=C(\\C(=O)N[C@@H]1C(=O)N2C(C(=O)[O-])=C(C[n+]3ccccc3)CS[C@H]12)c1csc(N)n1)C(=O)O", "system": "healthy Chinese subjects", "endpoint": "fraction excreted in urine", "result": "82%"}
{"SMILES": "O=C1Nc2ccc(Cl)cc2[C@@](C#CC2CC2)(C(F)(F)F)O1", "system": "plasma", "endpoint": "fraction unbound in plasma", "result": 0.029}
{"SMILES": "Cc1nn(C)cc1S(=O)(=O)NC(=O)c1ccc(-n2ccc(OCC(C)(C)C(F)(F)F)n2)nc1N1C[C@@H](C)CC1(C)C", "system": "pregnant women, first trimester, 1-12 weeks gestation, maternal plasma", "endpoint": "fraction unbound", "result": 0.007}
{"SMILES": "CCC(C)n1ncn(-c2ccc(N3CCN(c4ccc(OCC5COC(Cn6cncn6)(c6ccc(Cl)cc6Cl)O5)cc4)CC3)cc2)c1=O (stereo not drawn)", "endpoint": "fraction absorbed", "result": 0.59}
{"SMILES": "NC(=O)N1c2ccccc2CC(=O)c2ccccc21", "system": "plasma", "endpoint": "fraction unbound", "result": 0.35}
{"note": "Excerpt of the above:"}
{"SMILES": "C[C@H](Cn1cnc2c(N)ncnc21)OCP(=O)(O)O", "setting": "Simcyp first-order absorption", "endpoint": "fraction absorbed", "result": 0.2}
{"SMILES": "CC(C)(CO)c1cc2cc(NC(=O)C3(c4ccc5c(c4)OC(F)(F)O5)CC3)c(F)cc2n1C[C@@H](O)CO", "system": "microsomal incubation", "setting": "CYP2C9 Ki", "endpoint": "fraction unbound", "result": 0.876}
